{"data": "Results of several laboratories", "note": "Protocols differ between the studies behind these lines."}
{"Compound": "NCCONC(=O)[C@@H]1CC[C@@H]2CN1C(=O)N2OS(=O)(=O)O", "assay": "measured: urinary red blood cells positive", "system": "healthy Chinese men", "conditions": "intravenous, 1 g, treatment-emergent", "adverse event incidence": "0%"}
{"Compound": "Cc1c(Cl)c(C)[n+]([O-])c(Cl)c1-c1noc(-c2cc(O)c(O)c([N+](=O)[O-])c2)n1", "assay": "measured: Mild severity", "system": "healthy Chinese subjects", "conditions": "oral, 50 mg, 10 days", "adverse event incidence": "13.3%"}
{"Compound": "CCO[C@H]1CCN(Cc2c(OC)cc(C)c3[nH]ccc23)[C@H](c2ccc(C(=O)O)cc2)C1", "assay": "measured: dry throat", "system": "PNH patients with active haemolysis", "conditions": "oral, 200 mg, extension phase", "adverse event incidence": "0%"}
{"Compound": "CN(C)C(=N)N=C(N)N", "system": "gestational diabetes women", "conditions": "dose not given, treated arm", "adverse event incidence": "20%"}
{"Compound": "CC(=O)O[C@H]1C(=O)[C@@]2(C)[C@H]([C@H](OC(=O)c3ccccc3)[C@]3(O)C[C@H](OC(=O)[C@H](O)[C@@H](NC(=O)c4ccccc4)c4ccccc4)C(C)=C1C3(C)C)[C@]1(OC(C)=O)CO[C@@H]1C[C@@H]2O", "assay": "measured: blood alkaline phosphatase increased", "system": "patients with advanced solid tumours", "conditions": "intravenous, dose not given, grade 3 and 4, possibly related to drug", "adverse event incidence": "2%"}
{"Compound": "Cc1nc(-c2ccc(OCC(C)C)c(C#N)c2)sc1C(=O)O", "system": "healthy Chinese subjects", "conditions": "oral, 40 mg, fed, both formulations", "adverse event incidence": "25%"}
{"Compound": "O=C1CCc2ccc(OCCCCN3CCN(c4cccc(Cl)c4Cl)CC3)cc2N1", "assay": "measured: Hypotension", "system": "patients, CYP2D6 normal metabolizers", "conditions": "dose not given, long-acting oral or depot", "adverse event incidence": "4.6%"}
{"Compound": "CC(C)n1c(Nc2cccnc2)nc2cnc(Nc3ccc(N4CCN(C)CC4)cc3)nc21", "assay": "measured: Toothache", "system": "healthy male subjects", "conditions": "oral, 150 mg, added: rifampin", "adverse event incidence": "0%"}
{"Compound": "CC[C@H](C)[C@H](NC(=O)[C@H](Cc1ccccc1)NC(=O)[C@H](CCC(=O)O)NC(=O)[C@H](CCCCNC(=O)COCCOCCNC(=O)COCCOCCNC(=O)CC[C@H](NC(=O)CCCCCCCCCCCCCCCCC(=O)O)C(=O)O)NC(=O)[C@H](C)NC(=O)[C@H](C)NC(=O)[C@H](CCC(N)=O)NC(=O)CNC(=O)[C@H](CCC(=O)O)NC(=O)[C@H](CC(C)C)NC(=O)[C@H](Cc1ccc(O)cc1)NC(=O)[C@H](CO)NC(=O)[C@H](CO)NC(=O)[C@@H](NC(=O)[C@H](CC(=O)O)NC(=O)[C@H](CO)NC(=O)[C@@H](NC(=O)[C@H](Cc1ccccc1)NC(=O)[C@@H](NC(=O)CNC(=O)[C@H](CCC(=O)O)NC(=O)C(C)(C)NC(=O)[C@@H](N)Cc1cnc[nH]1)[C@@H](C)O)[C@@H](C)O)C(C)C)C(=O)N[C@@H](C)C(=O)N[C@@H](Cc1c[nH]c2ccccc12)C(=O)N[C@@H](CC(C)C)C(=O)N[C@H](C(=O)N[C@@H](CCCNC(=N)N)C(=O)NCC(=O)N[C@@H](CCCNC(=N)N)C(=O)NCC(=O)O)C(C)C", "assay": "measured: Severe adverse events", "system": "type 2 diabetes patients", "conditions": "dose not given", "scale": "reference: subjects", "adverse event incidence": "6.7%"}
{"Compound": "Cc1c(C(=O)O)ccc2c3n(nc12)[C@@H]1[C@H](C3)N(CC2CC2)[C@@]2(C(=O)Nc3cc(Cl)ccc32)[C@H]1c1cccc(Cl)c1F", "assay": "phase Ia trial, measured: Alopecia", "system": "cancer patients", "conditions": "oral, dose not given, all patients grade ≥3", "adverse event incidence": "0%"}
{"Compound": "FC(F)(F)c1ccc(CNc2ccc(Cc3c[nH]c4ncc(Cl)cc34)cn2)cn1", "assay": "measured: Dysgeusia", "system": "patients with advanced solid tumours", "conditions": "oral, dose not given, grade 1 and 2, possibly related to drug", "adverse event incidence": "26%"}
{"Compound": "C[C@H]1[C@H]2N(C(=O)CN(C)N2C(=O)NCc2ccccc2)[C@@H](Cc2ccc(OP(=O)(O)O)cc2)C(=O)N1Cc1cccc2cccnc12", "assay": "measured: Diarrhoea", "system": "HIV/HCV haemophilia cirrhosis", "conditions": "concentration not given, phase I trial", "adverse event incidence": "20%"}
